Assay results of several laboratories.
Compare with care: the assays were run in different laboratories. Numbers after ± are the reported error.
FAAH: Fatty-acid amide hydrolase 1 (FAAH, Homo sapiens, UniProt O00519)
Sequence of UniProt O00519 (whole entry, looked up): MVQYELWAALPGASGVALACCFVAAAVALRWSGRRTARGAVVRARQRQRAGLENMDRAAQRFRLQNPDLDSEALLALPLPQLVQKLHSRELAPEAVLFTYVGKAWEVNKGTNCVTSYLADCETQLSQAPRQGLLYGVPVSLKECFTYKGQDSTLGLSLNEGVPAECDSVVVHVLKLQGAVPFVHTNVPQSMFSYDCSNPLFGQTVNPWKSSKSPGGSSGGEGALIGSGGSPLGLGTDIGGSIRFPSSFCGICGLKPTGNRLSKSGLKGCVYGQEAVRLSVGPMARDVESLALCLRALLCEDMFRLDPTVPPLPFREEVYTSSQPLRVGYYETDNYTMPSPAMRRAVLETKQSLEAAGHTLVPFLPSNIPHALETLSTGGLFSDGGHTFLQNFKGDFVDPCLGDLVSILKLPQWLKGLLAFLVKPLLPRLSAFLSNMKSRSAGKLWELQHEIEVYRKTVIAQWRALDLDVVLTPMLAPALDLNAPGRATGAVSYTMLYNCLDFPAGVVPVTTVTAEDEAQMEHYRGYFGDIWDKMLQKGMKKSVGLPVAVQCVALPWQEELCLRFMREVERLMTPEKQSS
PARP1: Poly [ADP-ribose] polymerase 1 (PARP1, Homo sapiens, UniProt P09874)
Sequence of UniProt P09874 (whole entry, looked up): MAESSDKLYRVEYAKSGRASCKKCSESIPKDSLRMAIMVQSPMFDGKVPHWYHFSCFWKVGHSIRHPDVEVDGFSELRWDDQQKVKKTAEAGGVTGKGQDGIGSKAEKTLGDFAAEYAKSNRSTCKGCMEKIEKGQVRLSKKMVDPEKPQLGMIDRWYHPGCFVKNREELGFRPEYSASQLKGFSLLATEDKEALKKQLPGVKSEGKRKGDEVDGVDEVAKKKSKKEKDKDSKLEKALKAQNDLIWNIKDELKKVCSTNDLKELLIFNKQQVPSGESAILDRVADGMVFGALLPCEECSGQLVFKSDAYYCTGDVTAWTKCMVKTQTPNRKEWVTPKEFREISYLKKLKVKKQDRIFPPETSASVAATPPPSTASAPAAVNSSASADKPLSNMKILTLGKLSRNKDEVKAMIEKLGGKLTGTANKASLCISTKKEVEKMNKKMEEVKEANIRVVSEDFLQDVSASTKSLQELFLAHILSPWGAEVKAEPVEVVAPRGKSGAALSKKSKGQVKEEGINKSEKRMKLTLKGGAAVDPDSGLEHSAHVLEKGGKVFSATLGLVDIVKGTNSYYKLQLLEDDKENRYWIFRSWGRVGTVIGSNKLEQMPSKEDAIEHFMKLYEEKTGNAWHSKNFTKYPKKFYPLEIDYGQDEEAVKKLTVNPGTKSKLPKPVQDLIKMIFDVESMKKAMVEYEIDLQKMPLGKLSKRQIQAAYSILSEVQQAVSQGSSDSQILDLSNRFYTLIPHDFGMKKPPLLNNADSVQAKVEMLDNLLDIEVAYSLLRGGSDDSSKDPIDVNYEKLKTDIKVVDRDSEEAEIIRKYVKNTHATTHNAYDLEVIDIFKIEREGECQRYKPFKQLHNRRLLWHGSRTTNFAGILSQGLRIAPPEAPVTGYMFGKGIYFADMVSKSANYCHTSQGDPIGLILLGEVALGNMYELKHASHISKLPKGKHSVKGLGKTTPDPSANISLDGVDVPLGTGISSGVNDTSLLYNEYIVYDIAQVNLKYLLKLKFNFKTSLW
Sequence of UniProt P33527 (whole entry, looked up): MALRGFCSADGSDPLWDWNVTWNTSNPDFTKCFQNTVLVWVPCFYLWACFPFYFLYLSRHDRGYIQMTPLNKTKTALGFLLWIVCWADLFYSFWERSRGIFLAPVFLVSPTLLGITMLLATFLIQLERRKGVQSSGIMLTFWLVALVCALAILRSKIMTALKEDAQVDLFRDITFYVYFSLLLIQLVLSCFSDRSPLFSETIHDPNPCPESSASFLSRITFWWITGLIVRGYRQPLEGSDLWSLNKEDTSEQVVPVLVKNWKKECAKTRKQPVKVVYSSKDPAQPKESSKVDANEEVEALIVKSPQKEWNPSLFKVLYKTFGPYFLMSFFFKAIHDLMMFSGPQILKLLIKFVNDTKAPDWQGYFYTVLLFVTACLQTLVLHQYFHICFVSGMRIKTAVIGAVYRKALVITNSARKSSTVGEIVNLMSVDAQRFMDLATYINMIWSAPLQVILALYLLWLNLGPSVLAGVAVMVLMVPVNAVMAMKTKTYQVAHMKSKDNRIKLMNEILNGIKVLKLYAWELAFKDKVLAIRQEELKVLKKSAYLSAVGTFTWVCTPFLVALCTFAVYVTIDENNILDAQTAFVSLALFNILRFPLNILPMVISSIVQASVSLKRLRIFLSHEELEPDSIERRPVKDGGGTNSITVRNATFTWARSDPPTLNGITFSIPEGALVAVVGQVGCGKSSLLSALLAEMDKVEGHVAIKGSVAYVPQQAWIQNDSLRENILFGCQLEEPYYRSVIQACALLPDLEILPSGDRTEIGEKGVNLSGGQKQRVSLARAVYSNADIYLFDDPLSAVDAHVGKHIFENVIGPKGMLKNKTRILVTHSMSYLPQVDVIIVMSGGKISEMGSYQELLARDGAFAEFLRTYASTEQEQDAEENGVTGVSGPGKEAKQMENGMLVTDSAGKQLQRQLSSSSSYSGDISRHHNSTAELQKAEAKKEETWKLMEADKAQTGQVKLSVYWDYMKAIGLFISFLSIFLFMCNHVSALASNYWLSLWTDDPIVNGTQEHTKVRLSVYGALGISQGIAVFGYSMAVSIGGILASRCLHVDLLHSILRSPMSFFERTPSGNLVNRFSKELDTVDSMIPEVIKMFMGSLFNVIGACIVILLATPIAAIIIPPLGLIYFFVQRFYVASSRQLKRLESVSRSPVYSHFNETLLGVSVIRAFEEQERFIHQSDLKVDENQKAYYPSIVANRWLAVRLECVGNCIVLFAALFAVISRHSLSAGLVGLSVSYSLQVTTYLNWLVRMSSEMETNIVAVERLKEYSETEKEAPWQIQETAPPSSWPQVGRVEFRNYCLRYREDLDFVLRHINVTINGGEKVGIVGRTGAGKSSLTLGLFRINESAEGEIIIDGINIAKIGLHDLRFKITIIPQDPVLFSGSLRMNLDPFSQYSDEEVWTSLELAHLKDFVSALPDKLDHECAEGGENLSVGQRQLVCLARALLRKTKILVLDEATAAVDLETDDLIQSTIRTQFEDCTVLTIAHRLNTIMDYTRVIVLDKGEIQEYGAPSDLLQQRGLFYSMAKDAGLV
Sequence of UniProt P22071 (whole entry, looked up): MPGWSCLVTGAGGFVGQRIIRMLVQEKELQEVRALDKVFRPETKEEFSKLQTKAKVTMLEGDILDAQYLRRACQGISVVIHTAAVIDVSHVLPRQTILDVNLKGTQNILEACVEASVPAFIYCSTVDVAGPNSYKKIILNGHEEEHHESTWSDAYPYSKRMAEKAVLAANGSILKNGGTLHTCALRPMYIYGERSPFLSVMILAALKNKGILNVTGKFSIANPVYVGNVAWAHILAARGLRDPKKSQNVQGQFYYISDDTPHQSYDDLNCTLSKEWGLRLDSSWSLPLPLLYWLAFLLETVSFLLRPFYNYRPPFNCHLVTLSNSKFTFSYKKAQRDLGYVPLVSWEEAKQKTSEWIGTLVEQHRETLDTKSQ
Sequence of UniProt Q8R455 (whole entry, looked up): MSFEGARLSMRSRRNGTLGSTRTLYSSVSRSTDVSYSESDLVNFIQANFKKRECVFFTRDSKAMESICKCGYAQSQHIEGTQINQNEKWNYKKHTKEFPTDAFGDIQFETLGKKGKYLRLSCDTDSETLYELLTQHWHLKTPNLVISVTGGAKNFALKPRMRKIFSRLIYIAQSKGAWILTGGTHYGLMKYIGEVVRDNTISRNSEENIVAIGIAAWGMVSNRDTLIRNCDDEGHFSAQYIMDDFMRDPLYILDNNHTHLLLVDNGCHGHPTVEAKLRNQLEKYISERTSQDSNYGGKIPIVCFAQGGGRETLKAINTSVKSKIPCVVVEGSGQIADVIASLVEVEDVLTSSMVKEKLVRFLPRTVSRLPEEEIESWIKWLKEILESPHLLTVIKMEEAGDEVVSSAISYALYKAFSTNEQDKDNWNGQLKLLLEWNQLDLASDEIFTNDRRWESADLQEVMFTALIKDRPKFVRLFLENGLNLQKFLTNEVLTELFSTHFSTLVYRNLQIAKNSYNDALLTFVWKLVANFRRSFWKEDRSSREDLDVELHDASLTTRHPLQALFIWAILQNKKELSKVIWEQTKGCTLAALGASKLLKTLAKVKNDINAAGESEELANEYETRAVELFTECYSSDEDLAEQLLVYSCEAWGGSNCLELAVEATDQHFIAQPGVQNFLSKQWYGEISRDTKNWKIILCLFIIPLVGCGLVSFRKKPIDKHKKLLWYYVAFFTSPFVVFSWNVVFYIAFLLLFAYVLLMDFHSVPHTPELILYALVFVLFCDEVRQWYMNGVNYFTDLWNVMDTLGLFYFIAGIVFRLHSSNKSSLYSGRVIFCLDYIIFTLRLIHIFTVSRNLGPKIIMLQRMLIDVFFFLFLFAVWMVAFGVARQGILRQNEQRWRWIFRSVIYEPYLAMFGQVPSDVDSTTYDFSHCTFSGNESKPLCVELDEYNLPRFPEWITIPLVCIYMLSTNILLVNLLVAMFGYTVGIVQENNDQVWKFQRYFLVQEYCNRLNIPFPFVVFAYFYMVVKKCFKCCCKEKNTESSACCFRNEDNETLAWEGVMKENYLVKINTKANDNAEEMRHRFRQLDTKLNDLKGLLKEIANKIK
Sequence of UniProt Q8TDX7 (whole entry, looked up): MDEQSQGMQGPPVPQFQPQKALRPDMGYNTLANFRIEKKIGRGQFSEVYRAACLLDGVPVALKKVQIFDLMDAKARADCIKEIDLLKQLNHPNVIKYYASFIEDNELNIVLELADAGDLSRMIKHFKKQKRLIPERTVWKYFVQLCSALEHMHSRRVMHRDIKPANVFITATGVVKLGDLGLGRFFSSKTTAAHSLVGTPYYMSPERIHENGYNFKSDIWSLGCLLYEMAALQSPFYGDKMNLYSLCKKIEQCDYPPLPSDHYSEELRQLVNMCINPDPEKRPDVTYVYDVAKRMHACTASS

COc1cccc2cc(-c3nnc(SCC(=O)Nc4ccc(C)cc4)n3-c3ccccc3)oc12 — IC50 (fungal tyrosinase; enzyme activity, inhibitor, dopachrome absorbance; pH 6.8, 37 °C, added: L-tyrosine substrate): 1.7 ± 3.93 µM
C=C(C)CCOP(=O)(O)OP(=O)(O)OP(=O)(O)OC[C@H]1O[C@@H](n2cnc3c(N)ncnc32)[C@H](O)[C@@H]1O — IC50 (Serine/threonine-protein kinase Nek7 (NEK7, Homo sapiens, UniProt Q8TDX7); enzyme activity, inhibitor, HotSpot kinase; added: ATP 1 µM): 2.7 µM
O=c1[nH]c2ccccc2n1C1CCN(CCCC(c2ccc(F)cc2)c2ccc(F)cc2)CC1 — IC50 (Multidrug resistance-associated protein 1 (ABCC1, Homo sapiens, UniProt P33527); efflux, inhibitor; SupT1-Vin overexpressing ABCC1; added: SYTO 16 100 nM): 3.3 ± 0.4 µM
COc1cc(Cn2cc(COC(=O)NC3CCCCC3)nn2)cc(OC)c1 — IC50 (FAAH; enzyme activity, inhibitor, fluorescence; cell membranes): 0.0036 µM
C[C@@H](CNCc1ccccc1)N1C[C@H](CCCNC(=N)N)N(CCc2cccc(F)c2)C1=S — IC50 (L-type calcium channel; binding, radioligand displacement): > 1 µM
O=C(Nc1cc(F)c(Cl)c(F)c1)c1cc(S(=O)(=O)N2CCOCC2)c(Cl)cc1Cl — IC50 (Lysophosphatidic acid receptor 3 (LPAR3, Homo sapiens, UniProt Q9UBY5); Ca2+ mobilization, antagonist; RH7777; added: LPA at EC50): > 100 µM
COc1cc(CCC(=O)CC(=O)CCc2ccc(O)c(OC)c2)ccc1O — IC50 (Hsd3b1 (Rattus norvegicus, UniProt P22071); enzyme activity, inhibitor; rat testicular microsomes; lower bound from 100 µM screen, added: pregnenolone): ≥ 100 µM
CS(=O)(=O)OC[C@H]1COc2cccc(C(N)=O)c2O1 — IC50 (PARP1): 1.2 ± 0.21 µM
CN1CCN(CCCN2c3ccccc3Sc3ccc(C(F)(F)F)cc32)CC1 — IC50 (USP46, with UAF1 (Homo sapiens, UniProt P62068); deubiquitinase activity, inhibitor; no inhibition up to 114 µM, added: K63-linked diubiquitin): > 114 µM
Cn1c(=O)c(=O)n(C)c2cc(S(=O)(=O)NNC(=S)NC3CCCCC3)ccc21 — IC50 (Dipeptidyl peptidase 4 (DPP4, Homo sapiens, UniProt P27487); enzyme activity, inhibitor, fluorescence): 5.5e-05 µM
CCN(CC)c1ccc(C2CC(c3ccc(Br)cc3)=NN2C(=O)CCC(=O)O)cc1 (stereo not shown) — IC50 (Replication protein A 70 kDa DNA-binding subunit (RPA1, Homo sapiens, UniProt P27694); protein-nucleic acid interaction, inhibitor, mobility shift): > 100 µM
C[C@]12CCC(=O)C=C1CC[C@@H]1[C@@H]2[C@@H](O)C[C@]2(C=O)[C@@H](C(=O)CO)CC[C@@H]12 — IC50 (CatSper channel complex (Homo sapiens, UniProt Q7RTX7+Q86XQ3+Q8NEC5+Q96P56); calcium influx, inhibitor; human sperm; pH 8.2, added: 140 mM K+): > 10 µM
CC(=O)NO — IC50 (Urease subunit alpha, with UreA, UreB (ureC, Proteus mirabilis, UniProt P17086); whole-cell urease activity, inhibitor; 15 min preincubation, pH 5.5, 37 °C, added: 5 mM urea): 64.6 ± 3 µM
C#Cc1ccc2c(-c3ccccc3)c(C)c(=O)oc2c1 — IC50 (Cytochrome P450 1A1 (CYP1A1, Homo sapiens, UniProt P04798); enzyme activity, inhibitor, fluorescence; 6 min, pH 7.6): 2.93 µM
COc1cc(CN(CCN)C(=O)c2cccs2)ccc1OCc1ccccc1 — IC50 (Transient receptor potential cation channel subfamily M member 8 (Trpm8, Rattus norvegicus, UniProt Q8R455); ion channel activation, antagonist, aequorin calcium luminescence; CHO cells expressing receptor; added: menthol): 0.0643 ± 0.0034 µM
NC(=O)c1cccc2c1O[C@H](CO)CO2 — IC50 (PARP1): > 5 µM
NC(=O)[C@@H]1CC[C@@H]2CN1C(=O)N2OS(=O)(=O)O — IC50 (mrcB (Pseudomonas aeruginosa, UniProt G3XD31); ligand displacement, fluorescence; cell membranes): > 49 µM
COC(=O)c1ccc(O)cc1 — IC50 (FAAH; enzyme activity, inhibitor, fluorescence; with preincubation): > 100 µM
NC(=S)c1ccncc1 — IC50 (Urea transporter 2 (Rattus norvegicus, UniProt Q62668); urea transport, inhibitor; MDCK expressing rat UT-A1; 20 min): > 15000 µM

A few entries again:
CCN(CC)c1ccc(C2CC(c3ccc(Br)cc3)=NN2C(=O)CCC(=O)O)cc1 (stereo not shown) — IC50 (Replication protein A 70 kDa DNA-binding subunit (RPA1, Homo sapiens, UniProt P27694); protein-nucleic acid interaction, inhibitor, mobility shift): > 100 µM
C[C@]12CCC(=O)C=C1CC[C@@H]1[C@@H]2[C@@H](O)C[C@]2(C=O)[C@@H](C(=O)CO)CC[C@@H]12 — IC50 (CatSper channel complex (Homo sapiens, UniProt Q7RTX7+Q86XQ3+Q8NEC5+Q96P56); calcium influx, inhibitor; human sperm; pH 8.2, added: 140 mM K+): > 10 µM
CC(=O)NO — IC50 (Urease subunit alpha, with UreA, UreB (ureC, Proteus mirabilis, UniProt P17086); whole-cell urease activity, inhibitor; 15 min preincubation, pH 5.5, 37 °C, added: 5 mM urea): 64.6 ± 3 µM
